Experimental data of several laboratories.
Lines come from different studies, so protocols differ.
Cell line: NCI-H226

SMILES	test	setting	scale	endpoint	value
CC(=O)OC[C@H]1O[C@@H](Sc2sc(C(=O)c3ccc(Br)cc3)c(N)c2-c2nc3ccccc3s2)[C@H](OC(C)=O)[C@@H](OC(C)=O)[C@H]1OC(C)=O	SRB	10 µM, 48 h	relative to: untreated	growth	65.6%
CC(=C(c1ccc(O)cc1)c1ccc(Cl)cc1)c1ccc(Cl)cc1	cell growth or viability, SRB	–	–	GI50	2750 nM
CC/C=C\C/C=C\C/C=C\C/C=C\C/C=C\C/C=C\CCC(=O)Nc1ccn(C2OC(CO)C(O)C2(F)F)c(=O)n1 (stereo not drawn)	cell growth or viability, SRB	–	–	GI50	67.2 nM
COc1cc(CNC(=O)C[C@H](C)CCC=C(C)C)ccc1OCc1cn(-c2ccc(Cl)c(Cl)c2)nn1	SRB	10 µM, 48 h	–	growth percent	50.5%
CC(=O)OC[C@H]1O[C@@H](Sc2sc(C(=O)c3ccc(C)cc3)c(N)c2-c2nc3ccccc3s2)[C@H](OC(C)=O)[C@@H](OC(C)=O)[C@@H]1OC(C)=O	SRB	10 µM, 48 h	relative to: untreated	growth	30.3%
COc1cc(CNC(=O)C[C@H](C)CCC=C(C)C)ccc1OCc1cn(-c2ccc(C#N)cc2)nn1	SRB	10 µM, 48 h	–	growth percent	54.9%
C=C(F)C(=O)Nc1cnn2ccc(-c3ccc(C4CCCCC4)cc3)nc12	RT-qPCR, refers to: CYR61, CTGF, ANKRD1	10 µM, 24 h	–	mRNA level decrease	≤ 75%
CC(Cc1ccc(Cl)cc1)=C(c1ccc(Cl)cc1)c1ccc(OCCN(C)C)cc1	cell growth or viability, SRB	–	–	GI50	4990 nM
COc1cc(CNC(=O)C[C@H](C)CCC=C(C)C)ccc1OCc1cn(-c2ccc(F)cc2)nn1	SRB	10 µM, 48 h	–	growth percent	51.4%
